Published values pooled from the literature.
Every numbered part comes from another study and shows a few of its results, in no order. ± marks the error that the study gave.
Chain of UniProt P41143 (whole entry, looked up): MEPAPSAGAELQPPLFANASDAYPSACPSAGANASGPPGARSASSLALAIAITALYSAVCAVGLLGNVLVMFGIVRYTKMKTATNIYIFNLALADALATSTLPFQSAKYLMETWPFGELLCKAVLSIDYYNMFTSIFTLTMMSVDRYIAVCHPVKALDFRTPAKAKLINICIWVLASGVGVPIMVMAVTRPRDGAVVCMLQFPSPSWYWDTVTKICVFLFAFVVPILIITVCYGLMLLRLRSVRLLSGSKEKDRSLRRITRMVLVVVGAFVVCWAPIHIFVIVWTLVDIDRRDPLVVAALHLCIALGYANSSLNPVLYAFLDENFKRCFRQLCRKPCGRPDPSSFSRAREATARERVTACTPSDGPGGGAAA
Chain of UniProt P10635 (whole entry, looked up): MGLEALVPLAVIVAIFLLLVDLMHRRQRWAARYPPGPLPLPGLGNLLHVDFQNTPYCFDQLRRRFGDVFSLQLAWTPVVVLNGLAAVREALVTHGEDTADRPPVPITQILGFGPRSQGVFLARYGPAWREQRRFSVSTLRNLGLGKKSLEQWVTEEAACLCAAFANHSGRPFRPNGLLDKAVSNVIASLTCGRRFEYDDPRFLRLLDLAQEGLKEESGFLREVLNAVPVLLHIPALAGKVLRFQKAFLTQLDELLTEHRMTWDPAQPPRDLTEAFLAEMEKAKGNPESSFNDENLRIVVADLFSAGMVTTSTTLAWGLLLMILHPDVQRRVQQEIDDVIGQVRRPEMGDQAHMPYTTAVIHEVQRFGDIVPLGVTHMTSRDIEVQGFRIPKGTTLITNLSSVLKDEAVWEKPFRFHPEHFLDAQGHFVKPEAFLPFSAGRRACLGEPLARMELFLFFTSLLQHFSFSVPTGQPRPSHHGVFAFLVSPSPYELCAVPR
Chain of UniProt P37136 (whole entry, looked up): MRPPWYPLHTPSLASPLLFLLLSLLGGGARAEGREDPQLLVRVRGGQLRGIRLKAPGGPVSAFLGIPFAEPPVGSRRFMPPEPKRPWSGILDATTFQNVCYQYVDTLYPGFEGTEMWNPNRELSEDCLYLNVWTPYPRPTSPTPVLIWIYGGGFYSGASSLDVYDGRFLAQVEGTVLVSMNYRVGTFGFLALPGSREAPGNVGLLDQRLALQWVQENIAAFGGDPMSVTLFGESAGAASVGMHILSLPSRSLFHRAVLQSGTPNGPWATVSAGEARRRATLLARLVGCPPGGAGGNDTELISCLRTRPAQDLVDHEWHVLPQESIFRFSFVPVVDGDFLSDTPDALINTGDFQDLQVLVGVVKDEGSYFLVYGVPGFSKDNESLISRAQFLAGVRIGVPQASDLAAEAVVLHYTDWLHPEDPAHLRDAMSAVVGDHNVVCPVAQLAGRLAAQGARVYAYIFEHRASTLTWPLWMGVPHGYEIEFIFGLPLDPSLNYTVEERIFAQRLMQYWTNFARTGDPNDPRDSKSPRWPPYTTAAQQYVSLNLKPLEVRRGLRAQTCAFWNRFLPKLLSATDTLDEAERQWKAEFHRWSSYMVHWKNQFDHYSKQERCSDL
Chain of UniProt P06276 (whole entry, looked up): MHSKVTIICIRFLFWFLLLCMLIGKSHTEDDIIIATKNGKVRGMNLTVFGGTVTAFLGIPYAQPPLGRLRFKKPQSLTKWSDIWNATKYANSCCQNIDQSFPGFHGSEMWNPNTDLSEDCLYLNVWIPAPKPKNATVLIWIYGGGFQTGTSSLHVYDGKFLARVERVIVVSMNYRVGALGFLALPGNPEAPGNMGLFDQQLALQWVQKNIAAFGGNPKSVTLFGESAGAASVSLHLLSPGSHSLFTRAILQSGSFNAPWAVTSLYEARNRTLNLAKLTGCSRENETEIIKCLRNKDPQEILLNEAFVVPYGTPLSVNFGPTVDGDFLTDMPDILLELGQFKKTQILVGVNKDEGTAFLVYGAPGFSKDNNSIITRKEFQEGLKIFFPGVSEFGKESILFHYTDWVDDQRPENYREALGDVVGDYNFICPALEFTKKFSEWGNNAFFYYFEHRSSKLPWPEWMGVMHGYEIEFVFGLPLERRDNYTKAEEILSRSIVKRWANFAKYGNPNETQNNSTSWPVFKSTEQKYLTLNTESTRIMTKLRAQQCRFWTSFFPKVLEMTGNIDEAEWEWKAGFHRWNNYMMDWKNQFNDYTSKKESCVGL

Set 1
Substance: SNC80
Mode: agonist
Endpoint: EC50
target = Delta-type opioid receptor, with GoA (OPRD1, Homo sapiens, UniProt P41143); assay = GoA activation; value = 1.37 nM
target = Delta-type opioid receptor, with Gi1 (OPRD1, Homo sapiens, UniProt P41143); assay = Gi1 activation; value = 2.95 nM
target = Delta-type opioid receptor, with GoB (OPRD1, Homo sapiens, UniProt P41143); assay = GoB activation; value = 1.07 nM

Set 2
Substance: deucravacitinib
Method: multiple ascending dose
Species: healthy human
Route: oral
Endpoint: subjects with influenza-like illness
setting = 4 mg twice daily; value = 0%
setting = 2 mg twice daily; value = 11.1%
setting = 6 mg twice daily; value = 0%

Other studies, line by line
Mode: inhibitor
Substance = mitragynine; target = Cytochrome P450 2D6 (CYP2D6, Homo sapiens, UniProt P10635); assay = dextromethorphan O-demethylation; test system = human liver microsomes; IC50 = 2200 nM
Substance = phoxim-oxon; target = Ache (Rattus norvegicus, UniProt P37136); assay = enzyme activity, Ellman; test system = rat, postnatal day 1, heart homogenate; setting = 15 min, 37 °C; IC50 = 15 nM
Substance = benzalkonium bromide; target = Cholinesterase (BCHE, Homo sapiens, UniProt P06276); assay = enzyme activity; setting = with Triton; IC50 = 18500 ± 7800 nM

A few entries again (other studies, line by line):
Substance = benzalkonium bromide; target = Cholinesterase (BCHE, Homo sapiens, UniProt P06276); assay = enzyme activity; setting = with Triton; IC50 = 18500 ± 7800 nM
